Measurements from different studies.
Each numbered part is a random draw from the data of one study; scales do not carry over between parts.

Study 1 — method: protein-binding microarray; form: double-stranded DNA, one strand shown; matrix: in vitro; concentration: 250 nM; notes: 60-bp whole probe; with: salmon DNA 0.4 mg/ml; relative to: random background probes; direction: higher = stronger binding; quantity: log fluorescence
Target: Interferon regulatory factor 7, full length, phosphomimetic (IRF7, Homo sapiens, UniProt Q92985, residues 1-503, S101K/S471D/S472D/S475D/S476D/S477D/S483D/S484D/S487D)
Sequence of UniProt Q92985 (whole entry, unmodified, looked up): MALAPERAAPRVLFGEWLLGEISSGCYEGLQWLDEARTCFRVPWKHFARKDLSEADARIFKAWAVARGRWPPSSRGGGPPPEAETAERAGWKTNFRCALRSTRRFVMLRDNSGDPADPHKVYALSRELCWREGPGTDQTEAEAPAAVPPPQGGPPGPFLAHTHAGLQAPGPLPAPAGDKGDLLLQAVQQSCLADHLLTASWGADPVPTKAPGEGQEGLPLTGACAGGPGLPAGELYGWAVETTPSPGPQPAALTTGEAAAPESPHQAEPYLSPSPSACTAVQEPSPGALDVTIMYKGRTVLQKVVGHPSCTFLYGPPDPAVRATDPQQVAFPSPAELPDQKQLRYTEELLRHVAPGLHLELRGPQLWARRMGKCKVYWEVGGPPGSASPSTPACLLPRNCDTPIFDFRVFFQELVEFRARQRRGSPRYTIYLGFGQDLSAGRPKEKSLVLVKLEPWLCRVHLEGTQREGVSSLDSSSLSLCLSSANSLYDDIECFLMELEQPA
GCCTAGCACTTAGGTTCCGGTTTCGCTTAGTGCTAGGTCTTGATTCGCTTGACGCTGCTG: 9.36 z-score
GCCTAGCACATAGATATCGGGTTTCGATTAGTGCTAGTCTTGATTCGCTTGACGCTGCTG: 7 z-score
GCCTAGCACGACGGTTTCGGTTCCGGCACGTGCTAGGTCTTGATTCGCTTGACGCTGCTG: 12.5 z-score

Other studies, line by line
KAT6A winged helix 1, GST fusion: Histone acetyltransferase KAT6A, winged helix 1, GST fusion (KAT6A, Homo sapiens, UniProt Q92794, residues 1-85)
AGCGTGTA
E-score (KAT6A winged helix 1, GST fusion; protein binding microarray; double-stranded DNA, one strand shown, in vitro; not given, 8-mer, flanks averaged, mean of 2 arrays, mostly near background; relative to: not given, higher = stronger binding): 0.152

PhoQ, residues 284 288 289 292 302 303 NSMLDC
fold induction (PhoP, residues 12 14 15 18 19 IFFTR (Escherichia coli, UniProt P23836); Sort-seq, item: YFP reporter; E. coli; PhoQ-PhoP variant library, with: 10 µM Mg2+; relative to: high Mg2+ state, higher = stronger signaling): 7.71

CTATCCCC
E-score (KAT6A winged helix 1, GST fusion; protein binding microarray; double-stranded DNA, one strand shown, in vitro; not given, 8-mer, flanks averaged, mean of 2 arrays, mostly near background; relative to: not given, higher = stronger binding): -0.111

AAAAAAAA (biotin)
signal ratio (RNA-binding protein 8A, RRM domain (RBM8A, Homo sapiens, UniProt Q9Y5S9, residues 50-174); protein domain microarray; RNA, in vitro; not given, poly(A) 8-mer RNA, whole probe, immobilized GST-fusion domains, most near background; relative to: GST loading signal, higher = stronger binding): 0.0641

Excerpt of the above (other studies, line by line):
CTATCCCC
E-score (KAT6A winged helix 1, GST fusion; protein binding microarray; double-stranded DNA, one strand shown, in vitro; not given, 8-mer, flanks averaged, mean of 2 arrays, mostly near background; relative to: not given, higher = stronger binding): -0.111
